Results collected from several papers.
Parts stem from different laboratories: compare values within a part only. Positions count from the first letter of the parent shown.

Sample 1
Target: CCNB3, cyclin fold, Cln2 fusion (human)
Method: yeast growth competition, sequencing
Medium: yeast
Notes: strong parent motif
Baseline: not given
Direction: higher = stronger binding
Quantity: normalised enrichment score
Starting sequence: PPP1R3F docking peptide (human); VAPRRVLFADEAL; partner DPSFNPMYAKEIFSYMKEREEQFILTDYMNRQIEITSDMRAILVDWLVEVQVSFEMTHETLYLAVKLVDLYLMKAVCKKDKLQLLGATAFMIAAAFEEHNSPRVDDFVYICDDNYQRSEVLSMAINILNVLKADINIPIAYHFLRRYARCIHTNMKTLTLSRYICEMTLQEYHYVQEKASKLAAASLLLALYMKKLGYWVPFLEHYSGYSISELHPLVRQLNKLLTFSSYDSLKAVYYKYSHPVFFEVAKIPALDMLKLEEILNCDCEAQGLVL
VAPRKVLFADEAL [R5K]: 1.01
VAPRAVAFADEAL [R5A L7A]: -0.0202
VAPRRVLFAAEAL [D10A]: 0.978
VAPRRVLFADEAA [L13A]: 1.72
VAPRRVAFADEAL [L7A]: 0.334
VAPRRVLAADEAL [F8A]: 0.0709
VAPRRVLLADEAL [F8L]: 0.432
VAPRRVLFADAAL [E11A]: 0.993

Sample 2
Target: ABI1, truncated, D143A, DHFR fusion (Arabidopsis thaliana, UniProt P49597)
Method: DHFR PCA, dose-response
Medium: yeast
Notes: Hill fit, mean, not affinity
Together with: (+)-ABA, dose series
Direction: lower = more sensitive
Quantity: ABA EC50
Starting sequence: PYL1, truncated, DHFR fusion (Arabidopsis thaliana, UniProt Q8VZS8); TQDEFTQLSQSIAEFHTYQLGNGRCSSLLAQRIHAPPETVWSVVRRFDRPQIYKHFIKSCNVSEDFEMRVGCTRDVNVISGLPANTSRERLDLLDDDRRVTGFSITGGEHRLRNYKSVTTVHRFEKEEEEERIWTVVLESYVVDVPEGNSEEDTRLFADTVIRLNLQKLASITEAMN
E127A: 1.96 µM
S42P: 22.4 µM
P37V: 3.83 µM
Q10L: 3.37 µM
I172H: 14.5 µM
A30L: 2.17 µM
V145M: 22 µM
D144I: 150 µM
T73P: 160 µM
G108T: 190 µM
R45C: 129 µM
I133K: 2.65 µM
H34W: 7.84 µM
P146G: 53.2 µM
E14A: 6.97 µM
V40I: 23.1 µM
N165Q: 420 µM
D144Y: 252 µM
S171C: 2.45 µM
A175Q: 1.59 µM
R90C: 9.19 µM
R32M: 2.6 µM
A175L: 2.77 µM
Q51A: 66.8 µM
E64Q: 2.46 µM

Sample 3
Target: RNA binding protein fox-1 homolog 2, RRM domain, GST-SBP tag (RBFOX2, Homo sapiens, UniProt O43251-10, residues 100-194)
Method: RNA Bind-n-Seq
Form: RNA
Medium: in vitro
Concentration: 365 nM
Notes: natural RNA segment, single round, ends assumed
Baseline: no-protein control
Direction: higher = stronger binding
Quantity: RBNS enrichment (R)
Constant ends, left off below: GGGAGUUCUACAGUCCGACGAUC … UGGAAUUCUCGGGUGCCAA
Residues (chain): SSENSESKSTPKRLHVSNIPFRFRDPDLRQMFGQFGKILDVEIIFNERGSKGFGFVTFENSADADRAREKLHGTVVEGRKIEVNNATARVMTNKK
GGAUUCUAGGGCCCAGGGACUGAUGGCCCAGGAUCUCCGUUGGCACAGAGGCCCAGCCCCAGCAUCACCUCCAGGACCCCAGCUGCUCUAAGUCCAGGACCUCUACCCUG: 0.786
UUGAAAGGAGCUCCAGAGGAGUGGAGUUCUGUGUUGCUCACAUGUUAAAAUCUUGCUCACCUUCAGAGCAGAGGGAAUACCUAUCUUCAGAUAUCCGUCCAUUUUCAUCU: 0.505
CAAAUGCUGUCCUUUCCCUUACAGAGAAGAACAAUGGUAACUAAAAGCUGCAUAUAACUAGCAAUAACUACAUUGAACGGUGUGCAUUGUUCAUGAUUGUUGUGUUUUAA: 0.333
ACAGGACACUGCUCCAACCCAAAUCAAUGUCCUCUCUAGCUGUGCAUCCCAAACCCACCUCUUGUCUCCAGCCAUGCCCAGGAUCAAUUCUAGAAUCAGAGGCUACCCCU: 1.09
UGAGGUGAAUUUUGUUUGUCAUACAUGGAACCAUUUUAGUCCCAUUUGACUCACUUCAGACCAUCUUCCACACACUAUGUCUGUGCUUGGAGAGGGGAGGUGGCUCUCCA: 0.41
CUGUUAAAUUGCAGUACGUGUUAUAGACCACUCAGAUCAAGCCUCUACUCCCUCUGAGAGUUUUCAACAUCAGUUGAUUGAGCUUCAGGCUUUCCAACGUUAUCCCUGUA: 0.315
GAAGUGAGACCACUGUUGAAGUACCACAAAAGUUUGAAUGAACGAGUGAGUGUUCACUCUUUUGUCUGUGGAGUCUGCUGUGUGGCAGGAUCCCAGCCCUAGAGCUGCAG: 0.5
UGCUGACUUUAAAAGGAUUAAUCUGGGCAGACAUUAUGUAAAAGAAAGGUUGCGUUUAAUAUAUUUUUUGAACUUUGUAGGACAAAACAUAGCUGGUUAACCUUGAAGUG: 0.461

Sample 4
Target: Interferon regulatory factor 5, full length, phosphomimetic (IRF5, Homo sapiens, UniProt Q13568-2, residues 1-514, S451D/S453D/S456D/S462D)
Method: protein-binding microarray
Form: double-stranded DNA, one strand shown
Medium: in vitro
Concentration: 940 nM top
Notes: 60-bp whole probe
Together with: salmon DNA 0.4 mg/ml
Baseline: random background probes
Direction: higher = stronger binding
Quantity: fitted relative affinity
Constant ends, left off below: GCCTAGCAC … GTCTTGATTCGCTTGACGCTGCTG
TAAGGAGGCAGGGATGCTCCGTGCTAG: -0.573 z-score
TGAGCTACAGATGAGGCTCGGTGCTAG: -0.64 z-score
GACGGTTTCGACAGTGGGGACGTGCTA: 6.86 z-score
TCACTTTCCTTCTTGAAACTGTGCTAG: 1.57 z-score
GACGGTCTCGACTTTCGGGACGTGCTA: 1.9 z-score
GACGGTTTCGACGTTCGGGACGTGCTA: 6.31 z-score
GATGATATCAGACTGGAGACGTGCTAG: -0.558 z-score
GACGGTTTCGGATTCGGGACGTGCTAG: 7.03 z-score
TTGGTTCTCAGCTTGGGGCAGTGCTAG: 0.614 z-score
CAACCTTTGTTTTTTTCTATGTGCTAG: 1.45 z-score
GACGATATCCGGTTTCGAGACGTGCTA: 2.95 z-score
GACGGTTTCAGGACTGGGGACGTGCTA: 2.38 z-score
TCAATTAGAATTTTCATACTGTGCTAG: 0.12 z-score
GACGGTTTCGATTTCGGGACGTGCTAG: 10.5 z-score
TAAGGACTGGGTATCGGTTAGTGCTAG: 3.76 z-score
GGTGTCTAGGTTAGGGATTAGTGCTAG: -0.375 z-score

Some of these lines once more (sample 4):
TAAGGAGGCAGGGATGCTCCGTGCTAG: -0.573 z-score
TGAGCTACAGATGAGGCTCGGTGCTAG: -0.64 z-score
GACGGTTTCGACAGTGGGGACGTGCTA: 6.86 z-score
TCACTTTCCTTCTTGAAACTGTGCTAG: 1.57 z-score
GACGGTCTCGACTTTCGGGACGTGCTA: 1.9 z-score
GACGGTTTCGACGTTCGGGACGTGCTA: 6.31 z-score
GATGATATCAGACTGGAGACGTGCTAG: -0.558 z-score
GACGGTTTCGGATTCGGGACGTGCTAG: 7.03 z-score
TTGGTTCTCAGCTTGGGGCAGTGCTAG: 0.614 z-score
